Experimental data pooled from the literature.
PFF0160c: Dihydroorotate dehydrogenase (quinone), mitochondrial (PFF0160c, Plasmodium falciparum, UniProt Q08210)
UniProt Q08210, sequence (whole entry, looked up): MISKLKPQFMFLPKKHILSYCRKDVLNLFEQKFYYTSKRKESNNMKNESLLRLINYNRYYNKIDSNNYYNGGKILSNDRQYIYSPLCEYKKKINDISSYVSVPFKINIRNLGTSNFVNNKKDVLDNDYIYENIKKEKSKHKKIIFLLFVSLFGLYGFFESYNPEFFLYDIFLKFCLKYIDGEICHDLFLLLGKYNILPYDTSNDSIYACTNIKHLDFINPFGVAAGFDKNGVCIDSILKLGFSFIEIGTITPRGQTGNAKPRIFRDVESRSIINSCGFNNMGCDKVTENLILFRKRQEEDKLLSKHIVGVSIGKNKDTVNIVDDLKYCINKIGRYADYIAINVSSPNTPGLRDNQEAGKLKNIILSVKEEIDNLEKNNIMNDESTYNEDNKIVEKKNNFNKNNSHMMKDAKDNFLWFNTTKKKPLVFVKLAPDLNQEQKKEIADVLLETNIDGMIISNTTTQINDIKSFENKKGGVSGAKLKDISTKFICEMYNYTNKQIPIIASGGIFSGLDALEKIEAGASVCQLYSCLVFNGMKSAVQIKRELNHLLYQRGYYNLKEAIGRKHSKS
UniProt Q16288, sequence (whole entry, looked up): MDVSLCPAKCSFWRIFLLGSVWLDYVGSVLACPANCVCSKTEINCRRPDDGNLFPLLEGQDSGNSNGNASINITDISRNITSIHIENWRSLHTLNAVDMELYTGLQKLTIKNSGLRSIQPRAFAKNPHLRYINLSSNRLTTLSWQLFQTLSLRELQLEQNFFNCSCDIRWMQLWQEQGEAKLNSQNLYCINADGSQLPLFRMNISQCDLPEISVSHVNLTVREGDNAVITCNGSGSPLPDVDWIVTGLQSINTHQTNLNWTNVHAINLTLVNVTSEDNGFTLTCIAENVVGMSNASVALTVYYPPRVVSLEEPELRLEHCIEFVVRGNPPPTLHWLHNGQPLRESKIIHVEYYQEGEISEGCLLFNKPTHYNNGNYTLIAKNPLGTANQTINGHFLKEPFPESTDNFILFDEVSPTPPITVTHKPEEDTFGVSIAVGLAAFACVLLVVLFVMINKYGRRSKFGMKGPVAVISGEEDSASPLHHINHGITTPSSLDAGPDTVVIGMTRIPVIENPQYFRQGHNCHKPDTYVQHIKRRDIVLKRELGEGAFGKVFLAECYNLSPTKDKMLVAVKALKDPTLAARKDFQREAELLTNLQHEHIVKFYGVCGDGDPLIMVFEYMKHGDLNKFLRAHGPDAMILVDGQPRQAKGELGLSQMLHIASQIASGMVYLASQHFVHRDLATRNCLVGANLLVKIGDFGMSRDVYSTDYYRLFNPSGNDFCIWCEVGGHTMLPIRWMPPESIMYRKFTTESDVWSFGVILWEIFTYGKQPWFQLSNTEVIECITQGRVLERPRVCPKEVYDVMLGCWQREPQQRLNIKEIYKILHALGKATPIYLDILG

The half-life of O=C(Nc1cccnn1)N1CCN([C@@H]2CCOc3cc(C(F)(F)F)ccc32)CC1 is reported as 5.4 h (male Sprague-Dawley rat, plasma; oral, 3 mg/kg).
The half-life of CC[C@H](C)CCCCC(=O)N[C@@H](CCN)C(=O)N[C@H](C(=O)N[C@@H](CCN)C(=O)N[C@H]1CCNC(=O)[C@H]([C@@H](C)O)NC(=O)[C@H](CCN)NC(=O)[C@H](CCN)NC(=O)[C@H](CC(C)C)NC(=O)[C@@H](CC(C)C)NC(=O)[C@H](CCN)NC1=O)[C@@H](C)O is reported as 2.85 h (male Sprague-Dawley rat, plasma; intravenous, 5 mg/kg).
CC(C)CC(=O)OC[C@H]1O[C@@](C#N)(c2ccc3c(N)ncnn23)[C@H](O)[C@@H]1O gave an MTD of no less than 2000 mg/kg (general toxicity; beagle dog; oral, single dose).
With [2H]c1c([2H])c([C@]2([2H])CCCN2C(=O)C(C)(C)Oc2ccc3cn[nH]c3c2)c([2H])c([2H])c1C([2H])([2H])[2H] the remaining binding was 75% (NTRK3 (Homo sapiens, UniProt Q16288); binding, competition with immobilised ligand; 1 µM).
For N=C(N)NCCC[C@@H](NC(=O)[C@@H](N)Cc1ccccc1)C(=O)N[C@@H](Cc1ccccc1)C(=O)N[C@@H](CCCCN)C(N)=O, the AUC(0-t) was 3370 ng·h/mL (human, plasma; subcutaneous, 15 mg, patients).
The concentration of Nc1nc(-c2ccccc2)nc2[nH]nc(Nc3ccc(C(F)(F)F)cc3)c12 is reported as 1110 ng/mL (mouse, plasma; oral, 100 mg/kg, 4 h).
The IC50 of O=c1cc(NCCCNCc2scc(I)c2I)[nH]c2ccccc12 is reported as 892 nM (PFF0160c; enzyme activity, inhibitor, absorbance).
The AUC(0-inf) of CC(C)(N)CNC(=O)O[C@@H]1CCC[C@]2(C1)OOC1(O2)C2CC3CC(C2)CC1C3 (some centres unmarked) is reported as 461 ng·h/mL (male CD-1 mouse, plasma; intravenous, 3 mg/kg).
CC(C)C[C@H](NC(=O)[C@H](Cc1ccccc1)NC(=O)[C@H](Cc1ccccc1)NC(=O)Cc1ccc(-c2ccccc2)cc1)C(=O)N[C@@H](CCCCN)C(=O)N[C@@H](CCCNC(=N)N)C(=O)N[C@H](C(=O)N[C@@H](Cc1c[nH]c2ccccc12)C(=O)N[C@@H](CCCCN)C(=O)N[C@@H](CCCNC(=N)N)C(=O)O)C(C)C has a compound remaining of 94.1% (metabolic stability; dog, liver microsomes; 5 min).
CC(=O)c1c(Cc2cccc(C(F)(F)F)c2)c[nH]c1C has an IC50 of 2230 nM (PFF0160c; enzyme activity, inhibitor, absorbance).
[18FH] gave a tracer uptake of 0.38 %ID/g (mouse, kidney; intravenous, 1 h).

For quick reference, copied from above:
The AUC(0-inf) of CC(C)(N)CNC(=O)O[C@@H]1CCC[C@]2(C1)OOC1(O2)C2CC3CC(C2)CC1C3 (some centres unmarked) is reported as 461 ng·h/mL (male CD-1 mouse, plasma; intravenous, 3 mg/kg).
